Measured values from different studies.
Each line is one published result; not all experiments were run side by side. “And” joins repeats or separate records; there may be more than shown.
Target: Dual specificity mitogen-activated protein kinase kinase 5 (MAP2K5, Homo sapiens, UniProt Q13163)

SMILES	assay	test system	setting	scale	measurement	value
CN1CCN(Cc2ccc(-c3ccc(CO[C@H]4CCC[C@@H]4NC(=O)c4cc(-c5cnn(C)c5)cnc4N)cc3)cc2)CC1	enzyme activity, inhibitor		0.1 µM		inhibition	-3%
Nc1ncc2c(n1)-c1c([nH]c3ccc(C4=CCOCC4)cc13)CCC2	binding, competition with immobilised ligand		1 µM		remaining binding	85%
C=CC(=O)N1Cc2nc(-c3cc(-c4cc(Cl)cnc4Cl)c(F)cc3F)n(-c3ccncn3)c2C1	cell-free assay, inhibitor		1 µM		inhibition	-0.5%
Cc1ccc(-c2c(/C=C(\C#N)C(=O)NC(C)C)n(CCCO)c3ncnc(N)c23)cc1	cell-free assay, competition with immobilised ligand		1 µM		remaining binding	21%
N[C@H]1CC[C@H](Nc2nccc(-c3cccnc3Oc3ccc(NC(=O)NC4CC4)c4ccccc34)n2)CC1	kinobead competition pulldown	HEK293/HCT116 lysate mixture	10 µM, 1 h, 4 °C	lower = stronger competition	log2 LFQ intensity	23.3 and 23.6
CNC1C[S+]2CC[S+]3CC[S+](C1)[Ru-4]321([N]=C=S)[n]2c3ccc(OC)cc3c3c4c(c5cc(F)c[n+]1c5c32)C(=O)NC4=O (stereo not drawn)	KinomeScan		0.1 µM	baseline: untreated	remaining binding	78%
COc1cc(Nc2nc(C)cc(-c3cnn4nc(OC)ccc34)n2)cc(C(F)(F)F)c1	inhibitor		1 µM, MEK5	baseline: control	remaining activity	85%
CCN1CCN(Cc2ccc(C(=O)Nc3ccc(C)c(NCc4cnc5[nH]ccc5c4OC)c3)cc2C(F)(F)F)CC1	binding, competition with immobilised ligand		1 µM		remaining binding	1.3%
C=CC(=O)N1CCCC(n2c(=O)c3ncccc3n(Cc3ccc(Oc4ccccc4)cc3)c2=O)C1 (stereo not drawn)	cell-free assay, competition with immobilised ligand		1 µM		remaining binding	55%
CS(=O)(=O)Nc1cccc(-c2csc3cnc(Nc4ccc(N5CCN(CCCCCOc6cccc7c6C(=O)N(C6CCC(=O)NC6=O)C7=O)CC5)cc4)nc23)c1 (stereo not drawn)	probe labelling, inhibitor, KiNativ chemoproteomics	MOLT-4	1 µM		inhibition	28.6%
Nc1ncc2c(n1)-c1c([nH]c3ccc(C#CC4CC4)cc13)CCCC2	enzyme activity, inhibitor, TR-FRET		10 µM		inhibition	57%
COc1c(Cl)cccc1Nc1c(-c2ccncc2C#C[C@@]2(C)CCCN2C(=O)/C=C/CN(C)C)[nH]c2c1C(=O)NCC2	binding, competition with immobilised ligand		3 µM		remaining binding	73%
CNC(=O)C1CCN(c2cc(C)c(F)cc2NC(=O)c2ccc(-c3cc(O)ccc3C)c(C)c2)CC1	binding, competition with immobilised ligand		1 µM		remaining binding	80%
COc1cc(Nc2nccc(-c3cnn4nc(OC)ccc34)n2)cc(C(F)(F)F)c1	binding, competition with immobilised ligand		1 µM		remaining binding	100%
CC(C)=CC1OC(C)(C)C2C=C3C(=O)C(Cl)=CC(O)C3C3C(O)C4OC4C(=O)C132 (stereo not drawn)	cell-free assay, competition with immobilised ligand		10 µM		remaining binding	70%
Nc1ncc(-c2cc(-c3cnn(CC(F)(F)F)c3)ncc2F)nc1C(=O)NC1CNCC(F)C1 (stereo not drawn)	enzyme activity		1 µM	baseline: DMSO control	remaining activity	85.3%
C=CC(=O)N1CCc2ccc(-n3c(=O)ccc4cnc5ccc(-c6cnn(C)c6)cc5c43)cc21	KINOMEscan		1 µM	baseline: DMSO control	remaining binding	85%
Cc1cnc2nc1Nc1cccc(c1)COC/C=C/COCc1cc(ccc1OCCN1CCOCC1)N2	binding, competition with immobilised ligand		0.1 µM		remaining binding	82%

Excerpt of the above:
SMILES	assay	test system	setting	scale	measurement	value
CNC1C[S+]2CC[S+]3CC[S+](C1)[Ru-4]321([N]=C=S)[n]2c3ccc(OC)cc3c3c4c(c5cc(F)c[n+]1c5c32)C(=O)NC4=O (stereo not drawn)	KinomeScan		0.1 µM	baseline: untreated	remaining binding	78%
N[C@H]1CC[C@H](Nc2nccc(-c3cccnc3Oc3ccc(NC(=O)NC4CC4)c4ccccc34)n2)CC1	kinobead competition pulldown	HEK293/HCT116 lysate mixture	10 µM, 1 h, 4 °C	lower = stronger competition	log2 LFQ intensity	23.3 and 23.6
